Published values collected from several papers.
Compare with care: the assays were run in different laboratories. Numbers after ± are the reported error.

SMILES | test | system | setting | how to read | quantity | value
Cc1c(P(=S)(c2ccccc2)c2ccccc2)n2ccccc2[n+]1C/C=C/c1ccccc1 | – | mouse, brain | intraperitoneal, 10 mg/kg, 4.98 min | – | concentration | 14 ng/g
CN1CCC(Nc2ncc3ncnc(Nc4ccc(F)c(Cl)c4)c3n2)CC1 | – | guinea pig Hartley male, hepatic S9 | 1 µM, pH 7.4, with: without NADPH | – | CLint | 50.4 ± 1.13 mL/min/kg
CC1(C)S[C@@H]2[C@H](NC(=O)[C@@H](C(=O)O)c3ccsc3)C(=O)N2[C@H]1C(=O)O | – | Sprague-Dawley rat, plasma | intravenous, 144 mg/kg | – | t1/2 | 0.21 ± 0.01 h
CN[C@H](CC(C)C)C(=O)N[C@H]1C(=O)N[C@@H](CC(N)=O)C(=O)N[C@H]2C(=O)N[C@H]3C(=O)N[C@H](C(=O)N[C@H](C(=O)O)c4cc(O)cc(O)c4-c4cc3ccc4O)[C@H](O)c3ccc(c(Cl)c3)Oc3cc2cc(c3O[C@@H]2O[C@H](CO)[C@@H](O)[C@H](O)[C@H]2O[C@H]2C[C@](C)(N)[C@H](O)[C@H](C)O2)Oc2ccc(cc2Cl)[C@H]1O | – | Sprague-Dawley rat, male, urine | concentration not given, day 2, bolus dosing | relative to: humanized infusion group | urinary clusterin difference | -3100 ng/24 h
CC(C)N(CCCCOCC(=O)O)c1cnc(-c2ccccc2)c(-c2ccccc2)n1 | – | human, PAH patients, plasma | oral, dose not given, with: ERA plus PDE5 inhibitor comedication | relative to: patients without comedication | exposure reduction | 30%
O=c1c(O[C@@H]2O[C@H](CO)[C@@H](O)[C@H](O)[C@H]2O)c(-c2ccc(O)c(O)c2)oc2cc(O)cc(O)c12 | – | Sprague-Dawley rat | intravenous, 5 mg/kg, 7 days, with: oral ciclosporin 10 mg/kg | relative to: control | ciclosporin Cmax decrease | 33.8%
CC(=O)N[C@H](CCCCNC(=O)C(C)F)C(=O)N[C@@H](CS)C(=O)N[C@@H](CS)C(=O)N[C@@H](CCC(=O)O)C(=O)N[C@@H](Cc1c[nH]cn1)C(=O)N[C@H](Cc1ccccc1)C(=O)N[C@@H](CCCNC(=N)N)C(=O)N[C@@H](Cc1c[nH]c2ccccc12)C(=O)N[C@@H](CS)C(=O)N[C@@H](CCCNC(=N)N)C(=O)N1CCC[C@H]1C(=O)N[C@H](C(N)=O)C(C)C (stereo partly drawn) [fluorine-18 labelled] | – | nude mice, A375M xenograft, bone | intravenous, 2 h | – | tissue uptake | 0.23 ± 0.11 %ID/g
CCOc1cc(Oc2ccc(C(F)(F)F)cc2Cl)ccc1[N+](=O)[O-] | – | Sprague-Dawley rat, male, thyroid gland | oral, 3.25 to 62.5 mg/kg daily, 8 days | – | tissue concentration | 250 to 5300 ng/g
O[C@H]1CCCN[C@@H]1CCCn1cnc2c(Cl)c(Cl)ccc21 | – | monkey | multiple-dose up to 28 days | – | NOAEL | 80 mg/kg/day
c1cc2ccc3cccc4ccc(c1)c2c34 | HPLC-fluorescence | Wistar rat, male, stomach | oral, 4 mg/kg, 24 h | – | tissue concentration | 22.9 ± 5.2 ng/g
CN[C@@](C)(C[18F])C(=O)O | – | mouse, blood | 2 h, tumour-bearing | – | tracer uptake | 0.5 %ID/g
CC[C@@]1(O)C(=O)OCc2c1cc1n(c2=O)Cc2cc3c(CN(C)C)c(O)ccc3nc2-1 | – | human patients | oral, 2.5 mg daily, 5 days, cycle 1 day 5, median, alone | – | Tmax | 1.97 h

Some of these lines once more:
SMILES | test | system | setting | how to read | quantity | value
O[C@H]1CCCN[C@@H]1CCCn1cnc2c(Cl)c(Cl)ccc21 | – | monkey | multiple-dose up to 28 days | – | NOAEL | 80 mg/kg/day
